Measurements from different studies.
Compare with care: the assays were run in different laboratories.
U2AF2: U2AF2 148-342 (Homo sapiens, UniProt P26368)
Sequence of UniProt P26368 (whole entry, looked up): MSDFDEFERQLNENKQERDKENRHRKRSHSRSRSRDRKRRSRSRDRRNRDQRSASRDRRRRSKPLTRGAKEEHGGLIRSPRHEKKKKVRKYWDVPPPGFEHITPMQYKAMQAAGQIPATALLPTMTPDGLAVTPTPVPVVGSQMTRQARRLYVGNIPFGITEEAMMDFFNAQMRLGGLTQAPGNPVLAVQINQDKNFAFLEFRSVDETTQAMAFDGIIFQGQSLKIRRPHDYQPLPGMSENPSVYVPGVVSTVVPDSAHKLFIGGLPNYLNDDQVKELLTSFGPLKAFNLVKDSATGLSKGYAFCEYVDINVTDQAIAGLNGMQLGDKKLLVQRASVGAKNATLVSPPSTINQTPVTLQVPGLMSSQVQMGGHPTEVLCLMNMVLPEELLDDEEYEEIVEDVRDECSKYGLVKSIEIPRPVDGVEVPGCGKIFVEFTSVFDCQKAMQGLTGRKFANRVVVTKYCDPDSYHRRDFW
B1: parM (Escherichia coli, UniProt P11904); sequence looked up; chain MLVFIDDGSTNIKLQWQESDGTIKQHISPNSFKREWAVSFGDKKVFNYTLNGEQYSFDPISPDAVVTTNIAWQYSDVNVVAVHHALLTSGLPVSEVDIVCTLPLTEYYDRNNQPNTENIERKKANFRKKITLNGGDTFTIKDVKVMPESIPAGYEVLQELDELDSLLIIDLGGTTLDISQVMGKLSGISKIYGDSSLGVSLVTSAVKDALSLARTKGSSYLADDIIIHRKDNNYLKQRINDENKISIVTEAMNEALRKLEQRVLNTLNEFSGYTHVMVIGGGAELICDAVKKHTQIRDERFFKTNNSQYDLVNGMYLIGN
B2: SPOP D77E (Homo sapiens, UniProt O43791); sequence looked up; chain MSRVPSPPPPAEMSSGPVAESWCYTQIKVVKFSYMWTINNFSFCREEMGEVIKSSTFSSGANDKLKWCLRVNPKGLEEESKDYLSLYLLLVSCPKSEVRAKFKFSILNAKGEETKAMESQRAYRFVQGKDWGFKKFIRRDFLLDEANGLLPDDKLTLFCEVSVVQDSVNISGQNTMNMVKVPECRLADELGGLWENSRFTDCCLCVAGQEFQAHKAILAARSPVFSAMFEHEMEESKKNRVEINDVEPEVFKEMMCFIYTGKAPNLDKMADDLLAAADKYALERLKVMCEDALCSNLSVENAAEILILADLHSADQLKTQAVDFINYHASDVLETSGWKSMVVSHPHLVAEAYRSLASAQCPFLGPPRKRLKQS
B3: FZO1 truncated 83-493 D216R (Saccharomyces cerevisiae, UniProt P38297); chain ISSQLSQWNYNNNRVLLKRSILKTQAFMDQLQEENNIRPIFIAANDEREKLHVLQLNIKLDGQYNTKEKNGFNIEKKALSKLFHSQIVSVTNHLNALKKRVDDVSSKVFITGDVNTGKSALCNSLLKQRLLPERQLPCTNVFSEILEARENDGIEEVHAIPLNIAPTLKEAIDMYSIQNPKTYEIHTLKELPDLVPQNGKYALLKIYIKDDKRPASTSLLRNGTVDISLIDSPGLNMDSLQTAEVMSRQEEIDLVIFVVNAENQLTLSAKEFISLASREKKLMFFVVKKFDKIRDKQRCKELILKQIRDLSPETYKRAADFVHFVSKNGDELPHYHNENDNEDHGDRKPDDDPYSSSDPDPDFDSLEDSLRNFVLKKRSLSKLLPAKTYLSKLLSDIIMISKSNMKMYSEEGSGSGSGGSTKKELENKKESNLLSIKFFQSLYEGTVAQKLMVEEINLDID
B4: clcA 1-465 C85A/A237C (Escherichia coli, UniProt P37019); chain MKTDTPSLETPQAARLRRRQLIRQLLERDKTPLAILFMAAVVGTLVGLAAVAFDKGVAWLQNQRMGALVHTADNYPLLLTVAFLASAVLAMFGYFLVRKYAPEAGGSGIPEIEGALEDQRPVRWWRVLPVKFFGGLGTLGGGMVLGREGPTVQIGGNIGRMVLDIFRLKGDEARHTLLATGAAAGLAAAFNAPLAGILFIIEEMRPQFRYTLISIKAVFIGVIMSTIMYRIFNHEVCLIDVGKLSDAPLNTLWLYLILGIIFGIFGPIFNKWVLGMQDLLHRVHGGNITKWVLMGGAIGGLCGLLGFVAPATSGGGFNLIPIATAGNFSMGMLVFIFVARVITTLLCFSSGAPGGIFAPMLALGTVLGTAFGMVAVELFPQYHLEAGTFAIAGMGALLAASIRAPLTGIILVLEMTDNYQLILPMIITGLGATLLAQFTGGKPLYSAILARTLAKQEAEQLARSK
B5: mgtA 1-898 D441A (Escherichia coli, UniProt P0ABB8); chain MFKEIFTRLIRHLPSRLVHRDPLPGAQQTVNTVVPPSLSAHCLKMAVMPEEELWKTFDTHPEGLNQAEVESAREQHGENKLPAQQPSPWWVHLWVCYRNPFNILLTILGAISYATEDLFAAGVIALMVAISTLLNFIQEARSTKAADALKAMVSNTATVLRVINDKGENGWLEIPIDQLVPGDIIKLAAGDMIPADLRILQARDLFVAQASLTGESLPVEKAATTRQPEHSNPLECDTLCFMGTTVVSGTAQAMVIATGANTWFGQLAGRVSEQESEPNAFQQGISRVSMLLIRFMLVMAPVVLLINGYTKGDWWEAALFALSVAVGLTPEMLPMIVTSTLARGAVKLSKQKVIVKHLDAIQNFGAMDILCTDKTGTLTQDKIVLENHTDISGKTSERVLHSAWLNSHYQTGLKNLLDTAVLEGTDEESARSLASRWQKIAEIPFDFERRRMSVVVAENTEHHQLVCKGALQEILNVCSQVRHNGEIVPLDDIMLRKIKRVTDTLNRQGLRVVAVATKYLPAREGDYQRADESDLILEGYIAFLDPPKETTAPALKALKASGITVKILTGDSELVAAKVCHEVGLDAGEVVIGSDIETLSDDELANLAQRTTLFARLTPMHKERIVTLLKREGHVVGFMGDGINDAPALRAADIGISVDGAVDIAREAADIILLEKSLMVLEEGVIEGRRTFANMLKYIKMTASSNFGNVFSVLVASAFLPFLPMLPLHLLIQNLLYDVSQVAIPFDNVDDEQIQKPQRWNPADLGRFMIFFGPISSIFDILTFCLMWWVFHANTPETQTLFQSGWFVVGLLSQTLIVHMIRTRRVPFIQSCASWPLMIMTVIVMIVGIALPFSPLASYLQLQALPLSYFPWLVAILAGYMTLTQLVKGFYSRRYGWQ
B6: TOP2 C180A/C731A/E155C (Saccharomyces cerevisiae, UniProt P06786); AlexaFluor 488/546 labels; sequence looked up; chain MSTEPVSASDKYQKISQLEHILKRPDTYIGSVETQEQLQWIYDEETDCMIEKNVTIVPGLFKIFDEILVNAADNKVRDPSMKRIDVNIHAEEHTIEVKNDGKGIPIEIHNKENIYIPEMIFGHLLTSSNYDDDEKKVTGGRNGYGAKLCNIFSTCFILETADLNVGQKYVQKWENNMSIAHPPKITSYKKGPSYTKVTFKPDLTRFGMKELDNDILGVMRRRVYDINGSVRDINVYLNGKSLKIRNFKNYVELYLKSLEKKRQLDNGEDGAAKSDIPTILYERINNRWEVAFAVSDISFQQISFVNSIATTMGGTHVNYITDQIVKKISEILKKKKKKSVKSFQIKNNMFIFINCLIENPAFTSQTKEQLTTRVKDFGSRCEIPLEYINKIMKTDLATRMFEIADANEENALKKSDGTRKSRITNYPKLEDANKAGTKEGYKCTLVLTEGDSALSLAVAGLAVVGRDYYGCYPLRGKMLNVREASADQILKNAEIQAIKKIMGLQHRKKYEDTKSLRYGHLMIMTDQDHDGSHIKGLIINFLESSFPGLLDIQGFLLEFITPIIKVSITKPTKNTIAFYNMPDYEKWREEESHKFTWKQKYYKGLGTSLAQEVREYFSNLDRHLKIFHSLQGNDKDYIDLAFSKKKADDRKEWLRQYEPGTVLDPTLKEIPISDFINKELILFSLADNIRSIPNVLDGFKPGQRKVLYGCFKKNLKSELKVAQLAPYVSEATAYHHGEQSLAQTIIGLAQNFVGSNNIYLLLPNGAFGTRATGGKDAAAARYIYTELNKLTRKIFHPADDPLYKYIQEDEKTVEPEWYLPILPMILVNGAEGIGTGWSTYIPPFNPLEIIKNIRHLMNDEELEQMHPWFRGWTGTIEEIEPLRYRMYGRIEQIGDNVLEITELPARTWTSTIKEYLLLGLSGNDKIKPWIKDMEEQHDDNIKFIITLSPEEMAKTRKIGFYERFKLISPISLMNMVAFDPHGKIKKYNSVNEILSEFYYVRLEYYQKRKDHMSERLQWEVEKYSFQVKFIKMIIEKELTVTNKPRNAIIQELENLGFPRFNKEGKPYYGSPNDEIAEQINDVKGATSDEEDEESSHEDTENVINGPEELYGTYEYLLGMRIWSLTKERYQKLLKQKQEKETELENLLKLSAKDIWNTDLKAFEVGYQEFLQRDAEARGGNVPNKGSKTKGKGKRKLVDDEDYDPSKKNKKSTARKGKKIKLEDKNFERILLEQKLVTKSKAPTKIKKEKTPSVSETKTEEEENAPSSTSSSSIFDIKKEDKDEGELSKISNKFKKISTIFDKMGSTSATSKENTPEQDDVATKKNQTTAKKTAVKPKLAKKPVRKQQKVVELSGESDLEILDSYTDREDSNKDEDDAIPQRSRRQRSSRAASVPKKSYVETLELSDDSFIEDDEEENQGSDVSFNEED
B7: IL2 mature Y109A (Bos taurus, UniProt P05016); sequence looked up; chain APTSSSTGNTMKEVKSLLLDLQLLLEKVKNPENLKLSRMHTFDFYVPKVNATELKHLKCLLEELKLLEEVLNLAPSKNLNPREIKDSMDNIKRIVLELQGSETRFTCEADDATVNAVEFLNKWITFCQSIYSTMT
B8: cdc15 19-312 (Schizosaccharomyces pombe, UniProt Q09822); sequence looked up; chain SVKFRDNFWGSEDAGMDALMSRTKSSLSVLESIDEFYAKRASIEREYASKLQELAASSADIPEVGSTLNNILSMRTETGSMAKAHEEVSQQINTELRNKIREYIDQTEQQKVVAANAIEELYQKKTALEIDLSEKKDAYEYSCNKLNSYMRQTKKMTGRELDKYNLKIRQAALAVKKMDAEYRETNELLLTVTREWIDRWTEVCDAFQHIEEYRLEFLKTNMWAYANIISTACVKDDESCEKIRLTLENTNIDEDITQMIQNEGTGTTIPPLPEFNDYFKENGLNYDIDQLISK
B9: Ph-p 1397-1577 (Drosophila melanogaster, UniProt P39769); sequence looked up; chain GVGSGETNGLGTGGIVGVDAMALVDRLDEAMAEEKMQTEATPKLSESFPILGASTEVPPMSLPVQAAISAPSPLAMPLGSPLSVALPTLAPLSVVTSGAAPKSSEVNGTDRPPISSWSVDDVSNFIRELPGCQDYVDDFIQQEIDGQALLLLKEKHLVNAMGMKLGPALKIVAKVESIKEV

Substance	tested on	assay	test system	conditions	how to read	measurement	result
UUUCAAAUU (ssRNA)	U2AF2	sequencing of bound RNA	RNA	motif only		Kd	3.08 µM
B1 (parM)	itself	negative stain electron microscopy				binding	binds
B2 (SPOP D77E)	itself	negative-stain TEM				binding	binds
DSNTRILIGSLVAIIFILLAIIVIILWRQFWQK (DDR2 395-427 C404S (Homo sapiens, UniProt Q16832); sequence looked up)	itself	SDS-PAGE				binding	binds
SRSF1 (human)	CYB5R4 knockout human cells	PP4 interaction, 3xFLAG-PP4C IP-MS		concentration not given	reference: CYB5R4 KO over parental	log2 fold change	-0.56
B3 (FZO1 truncated 83-493 D216R)	itself	SEC				binding	binds
B4 (clcA 1-465 C85A/A237C)	itself	SEC				binding	binds
B5 (mgtA 1-898 D441A)	itself	native gel or EMSA				binding	binds
B6 (TOP2 C180A/C731A/E155C)	itself	FRET or BRET		together with: ADP, ATP, ADPNP		binding	binds
B7 (IL2 mature Y109A)	itself	SDS-PAGE				binding	binds
human NONO	CYB5R4 knockout human cells	PP6 interaction, 3xFLAG-PP6C IP-MS		concentration not given	reference: CYB5R4 KO over parental	log2 fold change	-0.2
UUUUUGGAU (ssRNA)	U2AF2	sequencing of bound RNA	RNA	motif only		Kd	3.2 µM
B8 (cdc15 19-312)	itself	negative stain electron microscopy				binding	binds
B9 (Ph-p 1397-1577)	itself	AUC				binding	binds
QSQSGYSQSYGGYEN (TAF15 58-72 (Homo sapiens, UniProt Q92804); N-acetyl/C-amide; sequence looked up)	itself	negative-stain TEM	peptide	peptide		binding	binds

For quick reference, copied from above:
Substance	tested on	assay	test system	conditions	how to read	measurement	result
B4 (clcA 1-465 C85A/A237C)	itself	SEC				binding	binds
B5 (mgtA 1-898 D441A)	itself	native gel or EMSA				binding	binds
